Assay results from different studies.
Protocols differ between the studies behind these lines. Values joined by “and” are separate records of one study, mostly repeats; a detail may differ. ± gives the spread as reported.

With `Cc1cc(Oc2nc(N3CC[C@@H](c4ccncc4)C3)ncc2F)[nH]n1` the IC50 was 50.1 µM (Breast cancer cell lines; cell proliferation).
The IC50 of `CCCCCCCC(=O)NCCCC[C@H](NC(=O)CCCCCCC)C(=O)N[C@@H](CCCCNC(=O)CCCCCCC)C(=O)NCC(=O)NCC(=O)NCC(=O)N[C@@H](CS)C(=O)N[C@@H](CCCNC(=N)N)C(=O)N[C@@H](CCCCN)C(=O)N1CCC[C@H]1C(=O)N[C@@H](CS)C(=O)N[C@@H](CCCNC(=N)N)C(=O)N[C@@H](CCCCN)C(=O)N1CCC[C@H]1C(=O)N[C@@H](CS)C(=O)N[C@@H](CCCNC(=N)N)C(=O)N[C@@H](CCCCN)C(=O)N1CCC[C@H]1C(=O)N[C@@H](CS)C(=O)N[C@@H](CCCNC(=N)N)C(=O)N[C@@H](CCCCN)C(=O)N1CCC[C@H]1C(N)=O` is reported as 276 µM (HEK293; cell growth or viability, MTT; 24 h).
With `CC[C@H](C)[C@H](NC(=O)[C@H](CCCCN)NC(=O)[C@@H](NC(=O)[C@H](CCC(N)=O)NC(=O)[C@H](CCCNC(=N)N)NC(=O)[C@H](CC(C)C)NC(=O)CNC(=O)[C@H](Cc1ccccc1)NC(=O)CNC(=O)[C@H](Cc1ccc(O)cc1)NC(=O)CNC(=O)[C@H](CCCCN)NC(=O)[C@@H](NC(=O)[C@H](Cc1ccccc1)NC(=O)[C@@H](NC(=O)[C@H](CC(=O)O)NC(=O)[C@H](CCCNC(=N)N)NC(=O)[C@H](C)NC(=O)[C@H](CO)NC(=O)[C@H](CCCCN)NC(=O)CN)C(C)C)[C@@H](C)O)[C@@H](C)CC)C(=O)N[C@@H](Cc1c[nH]c2ccccc12)C(=O)N[C@@H](Cc1ccccc1)C(=O)N[C@@H](CCC(N)=O)C(=O)N[C@@H](CC(N)=O)C(=O)N[C@@H](CCCNC(=N)N)C(=O)N[C@@H](CCCNC(=N)N)C(=O)N[C@@H](CCSC)C(=O)N[C@@H](CCCCN)C(=O)N[C@@H](Cc1c[nH]c2ccccc12)C(=O)N[C@@H](CCCCN)C(=O)N[C@@H](CCCCN)C(=O)O` the IC50 was 2.5 µM (MEC1; cell growth or viability, flow cytometry; 90 min).
The IC50 of `C#CCCCC[C@H](C)C[C@@H](C)C(=O)N(C)[C@H](C(=O)N(C)[C@@H](Cc1ccccc1)C(=O)N1CCC[C@H]1C(=O)N1CCC[C@H]1C(C)=O)C(C)C` is reported as 5720 µM and 5700 µM and 5860 µM (HEK293; cell growth or viability, SRB).
For `CC(=O)N[C@H](C(=O)N[C@@H](CCCNC(=N)N)C(=O)N[C@@H](CCCCN)C(=O)N[C@@H](CCCNC(=N)N)C(=O)N[C@]1(C)CCCCCCC=CCCC[C@@](C)(C(=O)N[C@@H](CCCNC(=N)N)C(=O)N[C@@H](CCC(=O)O)C(=O)N[C@@H](CC(C)C)C(=O)N[C@H](C(=O)N[C@@H](CCC(=O)O)C(N)=O)C(C)C)NC(=O)[C@H](CCC(N)=O)NC(=O)[C@H](C)NC(=O)[C@H](C)NC(=O)[C@H](CCCNC(=N)N)NC(=O)[C@H](CCCNC(=N)N)NC(=O)[C@H](C)NC1=O)C(C)C`, the IC50 was 15.2 µM (A-431; cell viability; 18 h, serum-free).
For `CCC1=C(C)C2=C(c3ccc(P(=NC4=[O+][Ru-]([Cl])[n+]5ccccc54)(c4ccccc4)c4ccccc4)cc3)c3c(C)c(CC)c(C)n3[B-](C)(C)[N+]2=C1C.Cc1ccc(C(C)C)cc1.Cl`, the IC50 was 60.3 µM (IMR-90; cell growth or viability, MTT).
`CC(C)C12OC1C1OC13C1(C)CCC4=C(COC4=O)C1CC1OC13C2OC(=O)CCCOC1OC(CO)C(O)C(O)C1O` (stereo not drawn) has an IC50 of 4.6 µM (SNU-475; cell growth or viability, XTT; 47 h).
`O=C1NC2(CC2)COc2ncc(F)cc2[C@H]2COCCN2c2ccn3ncc1c3n2` — result for “mean corpuscular haemoglobin”: 18.1 ± 0.7 pg (Sprague-Dawley rat, male, blood; oral, 10 mg/kg/day, 4 weeks, end of recovery, subacute toxicity).
With `Cc1cc(Nc2nc(C[C@@]3(C(=O)O)CCN(Cc4cccc(Cl)c4F)[C@H](C)C3)cc(C)c2F)[nH]n1` the IC50 was 0.0251 µM (SK-N-SH; cell growth or viability, ATP luminescence; 5 days).

Repeated from above:
With `Cc1cc(Oc2nc(N3CC[C@@H](c4ccncc4)C3)ncc2F)[nH]n1` the IC50 was 50.1 µM (Breast cancer cell lines; cell proliferation).
